# Assay results pooled from the literature.
# Numbered parts are unrelated; each lists some results of a single study. Changes are numbered by the printed parent chain.

# Block 1 — technique: RNA Bind-n-Seq; form: RNA; matrix: in vitro; concentration: not given; reference: input RNA pool; direction: higher = stronger binding
# Target: RING finger protein unkempt homolog, zinc fingers 1-6, GST-SBP tag (UNK, Homo sapiens, UniProt Q9C0B0, residues 30-357)
# Notes: RNA with constant flanks, human and mouse sites, ends assumed
# Residues (chain): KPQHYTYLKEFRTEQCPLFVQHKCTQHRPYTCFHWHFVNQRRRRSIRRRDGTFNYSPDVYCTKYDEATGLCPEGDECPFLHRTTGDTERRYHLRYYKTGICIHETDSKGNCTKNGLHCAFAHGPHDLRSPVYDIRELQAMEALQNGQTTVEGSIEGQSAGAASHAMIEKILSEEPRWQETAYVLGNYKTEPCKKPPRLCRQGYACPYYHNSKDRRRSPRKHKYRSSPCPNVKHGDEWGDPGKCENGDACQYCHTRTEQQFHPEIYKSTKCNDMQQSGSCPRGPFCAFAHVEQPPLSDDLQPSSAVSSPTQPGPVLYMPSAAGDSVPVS
Oligonucleotide,bound/input enrichment
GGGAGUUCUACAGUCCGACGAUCUACUUGUGCCCUGGCAGCCUUAUUGCAGGCAGUGCCGUCCUGCUUUAUGCUUUUGUGGAGACCCGGGACAACUACUUCUACAUUCACAGCAUUUGGCAUAUGCUCAUUGCGGGCAGUGUGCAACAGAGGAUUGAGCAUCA,0.14 ratio
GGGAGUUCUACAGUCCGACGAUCAAUUGAACAAAAAUGUUUCCACUGGCUUUUGCCUGUAAGAAAAAAAAUGUACCCGAGCACAUAGAGCUUUUUAAUAGCACUAACCAAUGCCUUUUUAGAUGUAUUUUUGAUGUAUAUAUCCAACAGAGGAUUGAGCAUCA,136 ratio
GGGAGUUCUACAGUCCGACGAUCUGUUUUGUUAUGCAUGACGUGUCUAUAACAAAUAUACACAUACGACAGGCAACAAGCUUGUUUUUGAUUUGCCAGACAUGCAUCAUUGGCUAUUGUUUGUUUGUUUUUUGUUUUUUUGUGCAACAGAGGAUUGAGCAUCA,0.206 ratio
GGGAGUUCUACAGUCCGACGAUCGCUAAUCAAGAGCCAGGUAUUUUACAACAAAAAAAUGCAGUUCAGAUUAUUAGUUCUGCUUUAGAUACUGAUAAUGAAUCUACAAAAGAUACAGAAAAUACUUUUGUCCUAGGAGAUGUUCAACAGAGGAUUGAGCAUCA,3.93 ratio
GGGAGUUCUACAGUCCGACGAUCGAUGGGUCUCUGAAGCAGAGCAUUCUUAGUUCUAAGCUGCUGGACCACCCUUACUGUAAAAGUCCACUGGAUGCUCCCUUGCUGUGCAGUGAACCCAAAGUAGAAAACCAAAUGUCAGGUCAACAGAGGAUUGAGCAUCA,0.383 ratio
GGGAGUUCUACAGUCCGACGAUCGAAACGGUGUAUGACAUUGCUGUAUCAAAGUUGUAAAAUUAAGCAUUAUUUAUUGAAAACUAUGUAUUUUUUUGUAAAAACCUGAUCACAUAGAGAAUAUCAGUGGCUUGUGCUUGUGCUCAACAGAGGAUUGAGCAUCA,0.525 ratio
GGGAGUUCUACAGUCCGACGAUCUUGCCACCGUCCGCCAAAAAGUCAGGCCAGAAACCUGUGCUUUCAGAUGUUCACGCAGAGCUAGACAGAAUCACACGGAAACCUGCUUCUGUUUCUCCUACAACACCUACAUCUCCUACGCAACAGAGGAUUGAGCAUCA,0.152 ratio
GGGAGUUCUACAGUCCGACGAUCAAGAGCCCCUUAAGUACCACCAUUCAGAUCAAACUGGAUAAUGUGGGCACAGUUACUGUCCCUGCUCCUGCACCAUCCAUUAGUGGUGAUGGUGACGGAAUUGAAGAGGAUAUUGCUCCACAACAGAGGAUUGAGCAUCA,0.0787 ratio

# Block 2 — target: Sox-I, HMG box (Salpingoeca helianthica); technique: Spec-seq; form: double-stranded DNA, one strand shown; matrix: in vitro; concentration: not given; notes: whole probe, mean of replicates; reference: not given; direction: lower = stronger binding; shared flanks, not repeated: GAGTCGTCTCGTCAGCAC … CCGTAGAGCACTCAGGTC
# Residues (chain): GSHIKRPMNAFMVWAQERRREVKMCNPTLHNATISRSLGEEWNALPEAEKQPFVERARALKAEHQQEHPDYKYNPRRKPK
Oligonucleotide,relative binding energy
CATCACC,0.877 ln ratio
TTTGGTT,0.701 ln ratio
GTGGGTT,0.938 ln ratio
CTCCGTT,0.512 ln ratio
CATCATA,0.421 ln ratio
TCTTGTT,-1.04 ln ratio
TCACGTT,0.747 ln ratio
CATATTC,0.312 ln ratio

# Block 3 — technique: universal PBM; form: double-stranded DNA, one strand shown; matrix: in vitro; concentration: not given; direction: higher = stronger binding
# Target: Sal-like protein 4, full length isoform B (SALL4, Homo sapiens, UniProt Q9UJQ4-2, residues 1-616)
# Notes: 8-mer, flanks averaged, mean of replicates
Oligonucleotide,E-score
CATAGGCA,0.0435
ACGGTACA,-0.0599
CCCGAAAC,-0.165
CTTTGTCC,-0.0389
TCCAAGAA,0.0111
ATCCAAGC,-0.2
AGGTCCAT,0.0454
ACCTCAGA,-0.286

# Single results of other studies
# Starting sequence: PafA, mature enzyme, eGFP fusion (Elizabethkingia meningoseptica, UniProt Q9KJX5); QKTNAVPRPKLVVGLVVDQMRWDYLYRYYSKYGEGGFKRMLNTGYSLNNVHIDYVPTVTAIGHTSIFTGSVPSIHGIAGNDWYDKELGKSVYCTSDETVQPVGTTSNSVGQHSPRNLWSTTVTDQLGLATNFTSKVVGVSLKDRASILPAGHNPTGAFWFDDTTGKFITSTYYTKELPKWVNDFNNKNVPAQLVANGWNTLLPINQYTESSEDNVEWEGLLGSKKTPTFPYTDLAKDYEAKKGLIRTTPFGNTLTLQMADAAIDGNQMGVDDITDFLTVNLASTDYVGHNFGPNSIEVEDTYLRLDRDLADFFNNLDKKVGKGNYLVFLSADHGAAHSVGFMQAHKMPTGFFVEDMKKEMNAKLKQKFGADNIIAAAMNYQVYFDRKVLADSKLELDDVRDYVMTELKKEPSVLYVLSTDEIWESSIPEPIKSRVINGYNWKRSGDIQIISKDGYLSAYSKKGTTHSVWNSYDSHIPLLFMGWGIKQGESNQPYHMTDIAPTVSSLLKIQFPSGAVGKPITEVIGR
Variant,target,assay,system,conditions,how to read,quantity,result
L25V,"vanadate, free oxyanion",microfluidic competitive inhibition,"in vitro, cell-free expressed","not given, derived from inhibition constants, unchanged parent 676 nM",lower = stronger binding,oxyanion analog dissociation constant,710 nM

# For quick reference, copied from above (block 1):
Oligonucleotide,bound/input enrichment
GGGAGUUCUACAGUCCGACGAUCUGUUUUGUUAUGCAUGACGUGUCUAUAACAAAUAUACACAUACGACAGGCAACAAGCUUGUUUUUGAUUUGCCAGACAUGCAUCAUUGGCUAUUGUUUGUUUGUUUUUUGUUUUUUUGUGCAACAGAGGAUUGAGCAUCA,0.206 ratio
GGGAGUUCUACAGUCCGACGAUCGCUAAUCAAGAGCCAGGUAUUUUACAACAAAAAAAUGCAGUUCAGAUUAUUAGUUCUGCUUUAGAUACUGAUAAUGAAUCUACAAAAGAUACAGAAAAUACUUUUGUCCUAGGAGAUGUUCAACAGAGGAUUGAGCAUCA,3.93 ratio
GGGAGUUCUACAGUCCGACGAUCGAUGGGUCUCUGAAGCAGAGCAUUCUUAGUUCUAAGCUGCUGGACCACCCUUACUGUAAAAGUCCACUGGAUGCUCCCUUGCUGUGCAGUGAACCCAAAGUAGAAAACCAAAUGUCAGGUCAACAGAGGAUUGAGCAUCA,0.383 ratio
